Experimental data collected from several papers.
Lines come from different studies, so protocols differ. Values joined by “and” are separate records of one study, mostly repeats; a detail may differ. ± marks the error that the study gave.

Under “literature range factor”, c1ccc2c(c1)ccc1cc3c(ccc4ccccc43)cc12 is recorded as 48 (polyethylene-water partitioning; PAH compilation; relative to: maximum over minimum K).
CNCCOC12CC3(C)CC(C)(CC(Cn4ncc(-c5ccc(N6CCc7cccc(C(=O)Nc8nc9ccccc9s8)c7C6)nc5C(=O)O)c4C)(C3)C1)C2: “dP/dt at 50 change” -29% (beagle dog, male, anaesthetised; intravenous bolus, 0.03 mg/kg, 210 min; relative to: baseline).
With COC(=O)C1=CO[C@@H](O[C@@H]2O[C@H](CO)[C@@H](O)[C@H](O)[C@H]2O)[C@@H]2C(CO)=CC[C@H]12 the accuracy was 94.8% (three freeze-thaw cycles; rat plasma; 8 ng/mL, -70 °C freeze).
For N#Cc1ccc2c(c1)[C@H]1CCCN(C(=O)c3ccc4[nH]cnc4c3)[C@H]1C2, “minimum ACTH level” read 1.2 pmol/L (human; 10 mg, day 7).
NC(=O)N1c2ccccc2C=Cc2ccccc21: “adverse events incidence” 7% (measured: back pain; human male; oral, dose not given, CTCAE on-treatment AEs).
For CNC(=O)c1ccc(-c2cnc3ncc(Cc4ccc5ncccc5c4)n3n2)cc1F, “patients with adverse event” read 18% (measured: Ascites, all grades; cancer patients; oral, dose not given, dose escalation, any causality).
With CN(C(=O)n1cnc(-c2ccc[n+]([O-])c2)c1)[C@H]1CC[C@H](O)CC1 the concentration was 10.3 ± 0.4 ng/g (Wistar rat, pons; oral, 10 mg/kg of BIA 10-2474, 4 h, single dose).
The partition coefficient of Oc1ccc(Br)c2cccnc12 is reported as 107 (oil/water; pH 7.4).
Cc1ccc(Sc2ccccc2N2CCNCC2)c(C)c1 — result for “participants with TEAE”: 0% (measured: AST increased; healthy adult women; oral, 5 mg daily, 12 days).
Under “serum TG change”, CCc1cc(C(=O)NC)c2nccc(N3CCc4c(cc(Cn5ccnc5)cc4-c4cn(C)nc4C(F)(F)F)C3=O)c2c1 is recorded as -30.7% (Sprague Dawley rats; oral, 100 mg/kg once daily, 7 days; relative to: vehicle).
Cc1c(-c2ccc(N3CCc4cccc(C(=O)Nc5nc6ccccc6s5)c4C3)nc2C(=O)O)cnn1CC12CC3(C)CC(C)(C1)CC(OCCNCC[C@H](O)CO)(C3)C2: “systemic vascular resistance change” -14% (anaesthetised male beagle dogs; intravenous infusion, 0.3 mg/kg/min, 75 min; relative to: vehicle).
C[C@@H](N)C1CCN(S(=O)(=O)c2cccc3cnccc23)CC1: “participants with epistaxis” 0% (healthy volunteers; 150 mg, fasted).
For CCCCCCCCCCCCCCCC(=O)N[C@@H](CCC(=O)NCCCC[C@H](NC(=O)[C@H](C)NC(=O)[C@H](C)NC(=O)[C@H](CCC(N)=O)NC(=O)CNC(=O)[C@H](CCC(=O)O)NC(=O)[C@H](CC(C)C)NC(=O)[C@H](Cc1ccc(O)cc1)NC(=O)[C@H](CO)NC(=O)[C@H](CO)NC(=O)[C@@H](NC(=O)[C@H](CC(=O)O)NC(=O)[C@H](CO)NC(=O)[C@@H](NC(=O)[C@H](Cc1ccccc1)NC(=O)[C@@H](NC(=O)CNC(=O)[C@H](CCC(=O)O)NC(=O)[C@H](C)NC(=O)[C@@H](N)Cc1cnc[nH]1)[C@@H](C)O)[C@@H](C)O)C(C)C)C(=O)N[C@@H](CCC(=O)O)C(=O)N[C@@H](Cc1ccccc1)C(=O)N[C@H](C(=O)N[C@@H](C)C(=O)N[C@@H](Cc1c[nH]c2ccccc12)C(=O)N[C@@H](CC(C)C)C(=O)N[C@H](C(=O)N[C@@H](CCCNC(=N)N)C(=O)NCC(=O)N[C@@H](CCCNC(=N)N)C(=O)NCC(=O)O)C(C)C)[C@@H](C)CC)C(=O)O, the AUC(0-peak) was 159000 ng·h/mL (rat Sprague-Dawley male, plasma; subcutaneous, 0.3 mg/kg, first injection, 4 day escalation).
CCc1nc(C(N)=O)c(Nc2ccc(N3CCC(N4CCN(C)CC4)CC3)c(OC)c2)nc1NC1CCOCC1 — result for “autosampler stability time”: no more than 24 h (processed mouse plasma QC samples; 4 °C).
COc1cc(Nc2ncc3c(n2)-c2ccc(Cl)cc2C(c2c(F)cccc2OC)=NC3)ccc1C(=O)O: “patients with adverse event” 17% (measured: Alopecia, grade 1; cancer patients, phase 1/2; oral, dose not given, together with: pembrolizumab).
Cn1cncc1[C@@](N)(c1ccc(Cl)cc1)c1ccc2c(c1)c(-c1cccc(Cl)c1)cc(=O)n2C gave a radioactivity excreted of roughly 80% (healthy male humans, faeces; oral, 50 mg, [14C]-labelled; relative to: dose).
For Cc1cc(Nc2ccc(S(F)(F)(F)(F)F)cc2)n2nc(C(C)(F)F)nc2n1, “adverse event Diarrhoea” read 0% (Plasmodium vivax malaria patients; oral, 400 mg).
For COc1ccc2c(c1)CN(C(=O)CCN1CCC(Cc3ccccc3)CC1)CC[S@@+]2[O-], “diastolic blood pressure” read 82 ± 14 mmHg (telemetry; conscious dog; intravenous, 4 mg/kg, 0.5 h).
O=C(CCC(C(=O)[O-])N1CCN(C(CCC(=O)NCC(O)CO)C(=O)[O-])Cc2cccc(n2)CN(C(CCC(=O)NCC(O)CO)C(=O)[O-])CC1)NCC(O)CO.[Gd+3] (stereo not drawn) has a Gd release of 0.014% (LC-ICP-MS; human plasma; pH 7.4, 37 °C; relative to: total Gd per day).
Under “amount excreted unchanged in urine”, Cn1cc(-c2cn3nccc3c(-c3cnn([C@]4(CC#N)C[C@@H](C#N)C4)c3)n2)cn1 is recorded as 1.1 mg (human, urine; oral, 100 mg once daily, day 10, dosing interval geometric mean).
c1ccc2c(c1)-c1cccc3c1c-2cc1ccccc13 — result for “literature range of log K”: 6 to 6.66 log units (polyethylene-water partitioning; PAH compilation).
Under “systolic blood pressure”, CCN1/C(=C/C(C)=O)Sc2ccc(F)cc21 is recorded as 109 ± 5 mmHg (cynomolgus monkey; oral, 100 mg/kg, 1 h post-dose).
With O=C(O)CCC(=O)O.[2H]C([2H])([2H])Oc1cc(C)c2[nH]ccc2c1CN1CC[C@@H](C2CC2)C[C@H]1c1ccc(C(=O)O)cc1 the Vss/F was 102 L (human, plasma; 200 mg once daily, day 10, multiple ascending dose).
C=CCN1CC(=O)N2[C@@H](Cc3ccc(O)cc3F)C(=O)N(Cc3cccc(N4CC(N5CCN(CC)CC5)C4)n3)C[C@@H]2N1C(=O)NCc1ccccc1 — result for “treatment-related ALT increased”: 0% (advanced solid tumour patients; oral, 120 mg twice daily, grade ≥3, dose-escalation).
With O=C(O)C1=CO[C@@H](O[C@@H]2O[C@H](CO)[C@@H](O)[C@H](O)[C@H]2O)[C@@H]2C(CO)=CC[C@H]12 the accuracy was 88.1% (rat plasma; 8 ng/mL, 2 weeks, -70 °C, post-preparative stability).
Cc1cc(NC2CCN(C(=O)OC3CCN(C(=O)/C=C/CN(C)C)C3)CC2)n2ncc(C(C)C)c2n1 (stereo not drawn) — result for “patients with adverse event”: 0% (Phase I dose escalation CTCAE v4.0, measured: Flatulence; patients with advanced solid tumours; dose not given, TIW dosing any grade).
For COc1cccc(OC)c1-c1cc(C(=O)NC2(C(=O)O)C3CC4CC(C3)CC2C4)nn1-c1ccc(C(=O)N(C)CCCN(C)CCCN(C)C(=O)CN2CCN(CC(=O)[O-])CCN(CC(=O)[O-])CCN(CC(=O)[O-])CC2)cc1C(C)C.[177Lu+3] (stereo not drawn), the tumour-to-blood ratio was 59.8 (mouse, HT-29 xenograft; 72 h post injection, biodistribution; relative to: tumour over blood uptake).
For CC(C)[C@H](C(=O)Nc1ccc(C(=O)NO)cc1)c1ccccc1, the accuracy was 109% (whole blood; 100 ng/mL, 3 h, 4 °C, stability on ice).
COc1ccc2nc([S@@+]([O-])Cc3ncc(C)c(OC)c3C)[nH]c2c1 has an AUC of 228 ng·h/mL (human, dried blood spots; oral, 10 mg omeprazole, control arm).
CC(C)n1c(Nc2cccnc2)nc2cnc(Nc3ccc(N4CCN(C)CC4)cc3)nc21: “subjects with adverse event” 7.1% (measured: platelet count decreased; healthy male subjects; oral, 100 mg, study, together with: itraconazole).
With CC(=O)N(C)C1CCN(c2cc(F)cc(NC(=O)c3cc4c(F)ccc(C)c4[nH]3)c2)C1 (stereo not drawn) the fraction absorbed was less than 0.01 (CD1 mouse; oral, 50 mg/kg).
NC[C@@H]1O[C@H](O[C@H]2[C@@H](O)[C@H](O[C@@H]3[C@@H](O)[C@H](N)C[C@H](N)[C@H]3O[C@H]3O[C@H](CO)[C@@H](O)[C@H](O)[C@H]3N)O[C@@H]2CO)[C@H](N)[C@@H](O)[C@@H]1O gave a body weight of 22.9 g and 24.3 g and 22.6 g and 23.4 g and 23.5 g and 20.5 g and 21.4 g and 22.7 g (NSG mice; dose not given, day 5 of treatment).
For Cc1cc([C@H]2C[C@H]3[C@@H](CF)SC(N)=N[C@@]3(c3ccc(F)cc3F)CO2)on1, the plasma concentration was 5.12 µM (male 129/SVE wild-type mouse, plasma; subcutaneous, 30 mg/kg, 1 h).
The Pruritus incidence of C[C@@H]1COCCN1c1cc(C2([S@](C)(=N)=O)CC2)nc(-c2cc[nH]c3nccc2-3)n1 is reported as 0% (Japanese advanced solid tumour patients; oral, 240 mg twice daily, CTCAE grade ≥3).
For C[Si]1(C)O[Si](C)(C)O[Si](C)(C)O[Si](C)(C)O[Si](C)(C)O1, “entropy of phase change” read 0.386 kJ/(mol·K) (1-octanol/water; concentration not given).
The AUC(0-inf) of CNC(=O)c1ccc(-c2cnc3ncc(Cc4ccc5ncccc5c4)n3n2)cc1F is reported as 7280 ng·h/mL (human moderate hepatic impairment NCI; oral, 200 mg single dose, geometric mean).
O=C(Nc1nc2cccc(-c3ccc(CN4CCS(=O)(=O)CC4)cc3)n2n1)C1CC1: “treatment-emergent adverse events” 0% (measured: infections and infestations; human rheumatoid arthritis patients; oral, 75 mg once daily, 4 weeks, regardless of relatedness).
O=C(COc1ccc(Cl)cc1)NC12CC(c3nnc([C@H]4C[C@@H](OC(F)(F)F)C4)o3)(C1)C2: “treatment-emergent adverse events” 5.6% (measured: Headache; healthy humans, both sexes; oral, dose not given, single ascending dose, fasted; relative to: subjects).
For Cc1ccc([C@@H]2O[C@H](CO)[C@@H](O)[C@H](O)[C@H]2O)cc1Cc1ccc(-c2ccc(F)cc2)s1, “urinary phosphate excretion change” read 18.1 mg (measured: inorganic phosphorus; Japanese type 2 diabetes patients; 200 mg, day 15, 24 h urine collection; relative to: baseline).
CC[C@H](C)[C@H](NC(=O)CN)C(=O)N[C@@H](C)C(=O)N[C@@H](CC(=O)O)C(=O)N[C@@H](C)C(=O)N[C@H](C(=O)N[C@@H](CCCCN)C(=O)N[C@@H](CCCCN)C(=O)N[C@H](C(=O)N[C@@H](C)C(=O)N[C@@H](CCCCN)C(=O)N[C@@H](C)C(=O)N[C@@H](CC(C)C)C(=O)NCC(N)=O)[C@@H](C)CC)[C@@H](C)CC gave a helix content of 45% (circular dichroism; 10 mM SDS; 100 µM).
C[C@@H](Oc1ccc(S(C)(=O)=O)cc1C(=O)N1C[C@@H]2C[C@]2(c2cc(C(F)(F)F)on2)C1)C(F)(F)F gave a renal clearance of 4.88 mL/min (elderly humans, urine; oral, 25 mg once daily, 0-24 h, single dose, geometric mean).
For NC1(C(=O)N[C@@H](CCO)c2ccc(Cl)cc2)CCN(c2nc[nH]c3nccc2-3)CC1, “incidence of Neutropenia” read 20% (metastatic CRPC patients; 480 mg b.i.d., any grade, treatment-related, together with: enzalutamide 160 mg daily).
The DT50 of COc1ccnc(C(=O)NC(CO)C(=O)O)c1O (racemic) is reported as 118 days (aerobic dark soil incubation; sandy loam soil; 20 °C, modelling endpoint).
Cc1ccc(C(=O)N(CCCN)C(c2nc3snc(C)c3c(=O)n2Cc2ccccc2)C(C)C)cc1 (stereo not drawn) — result for “patients with adverse event”: 0% (stomatitis grade ≥3 (CTCAE); human patients; intravenous, 13 mg/day).
O=C(Nc1cnccc1Cl)N1CCN(Cc2ccc3c(c2)OC(F)(F)O3)CC1: “adverse event incidence” 16.7% (measured: Headache; human healthy young men; 25 mg, multiple dose).
The SUV of [18F]c1ccc(-c2ccc3c(c2)[nH]c2ccncc23)cn1 is reported as 0.989 ± 0.236 (microPET/CT imaging; APP/PS1 mouse, AD model, brain; intravenous, 10 min).
CN1CCN(c2cccc3c2CCN(C(=O)/C=C/c2c(-n4cnnn4)ccc(Cl)c2F)[C@@H]3C(=O)Nc2ccc(C(=O)O)cc2)C(=O)C1: “subjects with infusion site pain” 12.5% (healthy human subjects; intravenous infusion, 3 mg/h, 5 days).
Cc1cc(C)c(CNC(=O)c2cc(Cl)c3c(c2C)O[C@@](C)([C@H]2CC[C@H](N(C)C)CC2)O3)c(=O)[nH]1: “patients with grade ≥3 TEAE” 4.2% (measured: Thrombocytopenia; human patients; oral, 200 mg once daily, 1 day onset day 14).
FC(F)(F)c1ccc(CNc2ccc(Cc3c[nH]c4ncc(Cl)cc34)cn2)cn1: “cognitive disorder incidence” 8% (patients with advanced solid tumours; oral, 1000 mg/day, all patients, all grades).
For CC[C@@](O)(c1cnc(C(F)(F)F)c(Cl)c1)c1c2ccn(C3CC3)c(=O)c2nn1C, “volume of distribution at steady state” read 3.1 ± 0.207 L/kg (Sprague-Dawley rat, male, plasma; intravenous, 1 mg/kg).
Under “patients with any AE of special interest”, CNC(=O)c1cc(Oc2ccc(NC(=O)Nc3cc(C(C)(C)C)nn3-c3ccc4ncccc4c3)c(F)c2)ccn1 is recorded as 29% (measured: worst grade 3; human; oral, dose not given, cycles 1 and 2, Medium AUC(0-4 h) subgroup).
For Cn1cc(Nc2nccc(-c3ccc4c(c3)CN(C3COC3)CC[C@H]4NC(=O)c3cn(C(C)(C)C)nn3)n2)cn1, “percent change from baseline” read -17.4% (measured: B cells, memory, non-class-switched; human, clinical trial, whole blood; 150 mg twice daily, follow-up).
OCC1=C[C@@H](O)[C@@H]2C=CO[C@@H](O[C@@H]3O[C@H](CO)[C@@H](O)[C@H](O)[C@H]3O)[C@H]12 has an accuracy of 88.2% (three freeze-thaw cycles; rat plasma; 8 ng/mL, -70 °C freeze).
Under “mean deviation from nominal”, Nc1ncn([C@H]2C[C@H](O)[C@@H](CO)O2)c(=O)n1 is recorded as 6.61% (mouse plasma; 80 ng/mL, 3 months, -80 °C, long-term stability, with THU).
